Results gathered from unrelated publications.
Protocols differ between the studies behind these lines. Numbers after ± are the reported error.
Organism: Salmonella typhimurium

Structure (SMILES) = O=[N+]([O-])c1ccc(N2CCC(NCCC(O)c3ccc(F)c4ccccc34)CC2)c(C(F)(F)F)c1 (stereo not drawn); test = SOS/umu test; test system = TA1535/pSK1002, TGA medium; setting = 7.63e-06 mg/mL, 4 h, together with: 10% rat liver S9; endpoint = survival; value = 97%
Structure (SMILES) = Cc1cc(C(=O)NC(C)(C)COc2cccc3c2C(N)=NS(=O)(=O)N3)cc(C)n1; test = Ames test, confirmatory; test system = TA1535; setting = 100 µg/plate; how to read = baseline: solvent control; endpoint = revertant ratio; value = 0.9
Structure (SMILES) = CNC(=O)c1c(N(C)N=O)ncn1C; test = plate incorporation; test system = TA100, water; setting = 2500 µg/plate, without S9; endpoint = revertant colonies per plate; value = 197 ± 21
Structure (SMILES) = COc1cccc(-c2n[nH]c(SCc3ccccn3)n2)c1OC; test = Ames test, plate incorporation; test system = TA98; setting = 0.13 mg/plate, with rat liver S9; endpoint = revertant colonies per plate; value = 34
Structure (SMILES) = COCCN(CCOC)N=O; test = mutagenicity, Ames plate incorporation; test system = TA1537; setting = 500 µg/plate, 3 d, without S9, methanol; endpoint = revertant colonies per plate; value = 10.3 ± 6
Structure (SMILES) = CC(=O)N1CCC(C(=O)N2CCN3C(=O)c4cc(-c5ccccc5)ccc4NC(=O)C3C2)CC1 (stereo not drawn); test system = TA1537; setting = 158 µg/plate, together with: rat liver S9; endpoint = revertants per plate; value = 15
Structure (SMILES) = O=[N+]([O-])c1ccc(N2CCN(CCC(O)c3ccc(F)cc3)CC2)c(C(F)(F)F)c1 (stereo not drawn); test = genotoxicity, SOS/umu test; test system = TA1535/pSK1002; setting = 0.031 mg/mL, 4 h, without S9, full range; endpoint = induction factor; value = 1
Structure (SMILES) = CC(C)N(C)N=O; test = mutagenicity, Ames plate incorporation; test system = TA98; setting = 1500 µg/plate, 3 d, without S9, methanol; endpoint = revertant colonies per plate; value = 25.7 ± 2
Structure (SMILES) = O=[N+]([O-])c1ccc(NC2CCNCC2)c(C(F)(F)F)c1; test = SOS/umu test; test system = TA1535/pSK1002; setting = 0.008 mg/mL, 4 h, with S9, full range; endpoint = survival; value = 102%
Structure (SMILES) = N#C[C@@]1(n2ccc(N)nc2=O)O[C@H](CO)[C@@H](O)[C@H]1O; test system = TA1535; setting = 600 nM, without S9; endpoint = viability; value = 114%
Structure (SMILES) = OC(CCN1CC=C(c2ccc(F)cc2)CC1)c1ccc(F)c2ccccc12 (stereo not drawn); test = genotoxicity, SOS/umu test; test system = TA1535/pSK1002; setting = 0.031 mg/mL, 4 h, with S9, lower range; endpoint = induction factor; value = 0.7
Structure (SMILES) = O=NN1CCN(C2CCCC2)CC1; test = mutagenicity, Ames plate incorporation; test system = TA1535; setting = 5000 µg/plate, 3 d, without S9, methanol; endpoint = revertant colonies per plate; value = 24.7 ± 2

Repeated from above:
Structure (SMILES) = COc1cccc(-c2n[nH]c(SCc3ccccn3)n2)c1OC; test = Ames test, plate incorporation; test system = TA98; setting = 0.13 mg/plate, with rat liver S9; endpoint = revertant colonies per plate; value = 34
Structure (SMILES) = COCCN(CCOC)N=O; test = mutagenicity, Ames plate incorporation; test system = TA1537; setting = 500 µg/plate, 3 d, without S9, methanol; endpoint = revertant colonies per plate; value = 10.3 ± 6
